Results pooled from the literature.
Numbered parts are unrelated; each lists some results of a single study. Substitutions count along the parent as printed.

Series 1 — method: universal PBM; form: double-stranded DNA, one strand shown; matrix: in vitro; tested at: 600 nM; direction: higher = stronger binding
Target: Sal-like protein 4, full length isoform A (SALL4, Homo sapiens, UniProt Q9UJQ4, residues 1-1053)
Sequence of UniProt Q9UJQ4 (whole entry, looked up): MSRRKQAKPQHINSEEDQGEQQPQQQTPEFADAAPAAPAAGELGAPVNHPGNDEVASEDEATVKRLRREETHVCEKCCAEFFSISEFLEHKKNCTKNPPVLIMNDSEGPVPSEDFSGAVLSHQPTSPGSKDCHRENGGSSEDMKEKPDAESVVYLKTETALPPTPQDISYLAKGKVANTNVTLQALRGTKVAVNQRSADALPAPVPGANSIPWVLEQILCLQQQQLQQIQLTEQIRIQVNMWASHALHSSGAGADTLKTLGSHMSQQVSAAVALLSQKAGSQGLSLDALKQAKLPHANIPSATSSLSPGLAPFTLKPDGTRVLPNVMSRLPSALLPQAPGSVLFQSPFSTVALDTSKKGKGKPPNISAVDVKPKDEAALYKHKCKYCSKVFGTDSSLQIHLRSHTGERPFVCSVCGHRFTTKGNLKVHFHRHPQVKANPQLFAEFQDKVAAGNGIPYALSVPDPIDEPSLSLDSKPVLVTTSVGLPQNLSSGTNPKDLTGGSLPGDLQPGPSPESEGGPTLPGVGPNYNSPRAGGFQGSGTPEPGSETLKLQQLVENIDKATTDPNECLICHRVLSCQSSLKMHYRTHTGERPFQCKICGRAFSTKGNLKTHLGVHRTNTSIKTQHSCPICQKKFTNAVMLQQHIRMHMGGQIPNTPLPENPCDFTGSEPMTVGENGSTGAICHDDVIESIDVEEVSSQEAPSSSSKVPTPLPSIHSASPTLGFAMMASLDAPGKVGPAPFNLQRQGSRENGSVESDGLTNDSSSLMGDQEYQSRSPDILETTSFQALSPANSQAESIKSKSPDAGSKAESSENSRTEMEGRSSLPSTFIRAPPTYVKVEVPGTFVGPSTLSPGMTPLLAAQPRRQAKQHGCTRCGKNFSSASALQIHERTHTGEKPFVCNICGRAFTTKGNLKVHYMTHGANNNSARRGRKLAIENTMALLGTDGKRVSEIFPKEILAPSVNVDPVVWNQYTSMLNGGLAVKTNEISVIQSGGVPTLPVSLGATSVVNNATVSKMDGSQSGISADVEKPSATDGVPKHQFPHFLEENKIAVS
Setting: 8-mer, flanks averaged, mean of replicates
| Strand | E-score |
| --- | --- |
| ACCAGCCC | -0.255 |
| GTTACCAA | 0.0373 |
| TCAGCGCA | -0.125 |
| GGAGGCCA | -0.295 |
| TAGCCGCA | -0.252 |
| CCGCATCA | -0.143 |
| AAAGCCAT | 0.156 |
| GCACGTCC | -0.192 |
| AGAAGAAC | 0.00445 |
| GTCTCCAC | -0.23 |
| GTGGCGGA | -0.291 |
| ATAACGTC | 0.296 |
| AGTGAGAT | -0.0133 |
| CTGGGTAC | -0.273 |
| AACTGTTA | 0.22 |
| CAAGCACG | -0.106 |
| AGAGAAAA | 0.0111 |

Series 2 — method: DHFR PCA, deep sequencing; matrix: yeast; added: (+)-ABA 0.39 µM; relative to: wild-type fitted maximum; direction: higher = stronger binding
Target: ABI1, truncated, D143A, DHFR fusion (Arabidopsis thaliana)
Setting: methotrexate growth selection, single substitutions
Starting sequence: PYL1, truncated, DHFR fusion (Arabidopsis thaliana); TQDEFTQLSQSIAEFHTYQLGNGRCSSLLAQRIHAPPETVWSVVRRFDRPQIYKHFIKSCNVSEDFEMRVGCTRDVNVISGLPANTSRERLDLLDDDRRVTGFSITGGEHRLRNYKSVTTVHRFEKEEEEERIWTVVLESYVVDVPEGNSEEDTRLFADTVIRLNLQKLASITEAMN; partner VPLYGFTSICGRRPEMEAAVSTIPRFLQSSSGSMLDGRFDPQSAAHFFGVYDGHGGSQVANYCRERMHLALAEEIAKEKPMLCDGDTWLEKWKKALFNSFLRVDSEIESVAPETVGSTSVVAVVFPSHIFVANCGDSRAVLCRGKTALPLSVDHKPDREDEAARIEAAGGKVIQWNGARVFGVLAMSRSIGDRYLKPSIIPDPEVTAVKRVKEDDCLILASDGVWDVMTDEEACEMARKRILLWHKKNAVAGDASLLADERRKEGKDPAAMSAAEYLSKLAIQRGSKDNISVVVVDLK
| Variant | relative binding score |
| --- | --- |
| E129N | 48.5% |
| V78G | 19% |
| M176I | 21.1% |
| E125Y | 47.4% |
| L169R | 12% |
| N22F | 27.3% |
| A158W | -7% |
| T106Q | 17.8% |
| L156M | 44.4% |
| G102I | 32.1% |
| P83T | 7.93% |
| Q2C | 51.5% |
| A158N | -0.248% |
| F157E | -3.52% |
| D95P | -11% |
| I52M | 44.7% |
| V70L | 4.66% |
| L82I | 35% |
| K126D | 73.1% |
| Q167G | 22.6% |
| S80E | -4.24% |
| Q19K | 50.8% |

Series 3 — method: protein binding microarray; form: double-stranded DNA, one strand shown; matrix: in vitro; tested at: not given; relative to: not given; direction: higher = stronger binding
Target: Histone acetyltransferase KAT6A, both winged helices, GST fusion (KAT6A, Homo sapiens, UniProt Q92794, residues 1-181)
Setting: 8-mer, flanks averaged, mean of 2 arrays, mostly near background
Construct (chain): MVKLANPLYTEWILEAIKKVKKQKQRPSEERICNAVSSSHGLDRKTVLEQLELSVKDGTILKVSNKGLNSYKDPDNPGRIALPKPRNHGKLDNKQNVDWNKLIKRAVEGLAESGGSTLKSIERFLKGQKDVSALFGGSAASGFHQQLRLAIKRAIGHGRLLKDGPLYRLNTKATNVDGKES
| Strand | E-score |
| --- | --- |
| ACACAACC | 0.0214 |
| ATTCTAGC | -0.131 |
| AGACCACT | -0.254 |
| CGGGTTTA | 0.283 |
| ACCTTCCT | -0.0703 |
| AAGAACCG | 0.0661 |
| AGTCTCAC | -0.0138 |
| TCTATAAA | -0.222 |
| GGGACGGA | 0.185 |
| ACCGCGTC | 0.338 |
| CCCCATCA | -0.252 |
| AACCGAGT | 0.0503 |
| TACAATCA | -0.0927 |
| AAATTCTA | -0.0603 |
| ATTGCATG | -0.121 |
| AGGGCCTA | -0.161 |
| AGCATTCA | -0.107 |
| CCGTTCTA | 0.122 |
| CGCCGTTA | 0.295 |
| ATGTACGG | 0.184 |
| CCGGAGAC | 0.168 |
| ATGATTGA | -0.192 |
| GGTCGCAC | 0.179 |
| AAAGTGCA | -0.0402 |
| GCCTTACA | -0.187 |

Series 4 — method: RNA Bind-n-Seq; form: RNA; matrix: in vitro; tested at: 365 nM; relative to: no-protein control; direction: higher = stronger binding
Target: RNA binding protein fox-1 homolog 2, RRM domain, GST-SBP tag (RBFOX2, Homo sapiens, UniProt O43251-10, residues 100-194)
Setting: natural RNA segment, single round, ends assumed
Shared flanks, not repeated: GGGAGUUCUACAGUCCGACGAUC … UGGAAUUCUCGGGUGCCAA
| Strand | RBNS enrichment (R) |
| --- | --- |
| GAUGUGCAGCAGAUUGGAAGGAGACACAGAUGUUCGGUUUUUUUCCUGUUUCUGAAAAGAAAUAAUAAUAUCCAGGUCAACAGAAUGAAAAAUGAAAGAUGAUUUGCAAU | 1.2 |
| CAAGAGCCCACCUCCUGCUGUGUGAUGUCAUCAGGACACCCCCACCCUCACCCCACCACCAGGGUCCUGACUUCACAUUCUUCACAGAAGGGGACAAGACCUCCAGGAGG | 0.387 |
| UUCUAAAAUACCACAUUUCUGAAAUCAUAAAUAAGUUUAUUCAGGUUCUAACCCUUUGCUGUACACAAGCAGACAGAAAUGCAUCUGUUACAUAAAUGAGAAAAAGCUAU | 0.412 |
| GAGGCCUGUAAUAAUCACCAACUGCCUGAUCACUCUGGCCAUCAUUGGGGCCUGAGGAACAACUUUUGCAGGGUGUAUGUACAGUAGAAGGAGACAGAAGAGUUCUGAUG | 0.68 |
| CGGUCUCACUGAUAACAGCUCCAGAAAAAAAGACAAGGCUCCCCCUCUGACCCUUCCUGUUGGUAUUUAUGAAAUCUCAAAGAGAUGAGCCACCUUGGCUUCCAAUAUGG | 0.593 |
| GCUCAGGAGUUUGGGAGAGGGGCAGGAGAAGGAUAAGAAAGCCUGGGUUUUAGGCUUGCCUGGGAAGCUACAGUCAAGGUGCAUUCUGGGAGCUACUCAUCCCCAGCAGU | 1.13 |
| CCCAGGCUCAAGUAAUCCUCCCAUCUUAGUGCCCCAAGUAGCUGGGACUACAGGGGUGCACUACCACACCGGGUUGAAUUUUUUUUUAAUUUUAGUAGAGAUGAAGUGUC | 0.656 |
| CCCUGGGUUCCUUUGUGCUGCUGUGUGCCUCCUCUCCUGCCGCCCUUUGUCCUCCGCUAAGAGACCCUGCCCUACCUGGCCGCUGGGCCCCGUGACUUUCCCUUCCUGCC | 0.499 |

Series 5 — method: competition protein-binding microarray; form: double-stranded DNA, one strand shown; matrix: in vitro; tested at: 2 µM; added: Pho4 competitor, 0.05 µM; direction: higher = stronger binding; shared flanks, not repeated: … GTCTTGATTCGCTTGACGCTGCTG
Target: Centromere-binding protein 1, full length, His-tagged (CBF1, Saccharomyces cerevisiae, UniProt P17106, residues 1-351)
Sequence of UniProt P17106 (whole entry, looked up): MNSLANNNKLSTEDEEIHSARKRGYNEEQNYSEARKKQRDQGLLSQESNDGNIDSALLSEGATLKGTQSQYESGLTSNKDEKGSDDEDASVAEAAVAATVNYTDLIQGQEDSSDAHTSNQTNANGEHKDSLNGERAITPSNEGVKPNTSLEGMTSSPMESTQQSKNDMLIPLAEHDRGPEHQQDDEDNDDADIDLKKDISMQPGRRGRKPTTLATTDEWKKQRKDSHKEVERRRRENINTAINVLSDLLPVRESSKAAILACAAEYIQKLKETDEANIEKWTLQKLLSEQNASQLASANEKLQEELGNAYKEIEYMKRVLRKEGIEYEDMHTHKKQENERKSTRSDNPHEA
Setting: whole 60-bp probe, lowest competitor level
| Strand | fluorescence intensity |
| --- | --- |
| TGCGCAACAACTTTTCACGTGAAGTTATGTCTAGAA | 926 a.u. |
| AAATTACTAAGTTGATATGTGGGTGACGCCGTATGA | 63.7 a.u. |
| CTTCTGTAAATTTTTCACGTGTTCTGACGCGCCCCG | 1270 a.u. |
| GTCTTGTCTCATTGTGATGTGGGTGTCCCCACTTCA | 78.3 a.u. |
| AAATTACTAAGTTGTCACCGCACTTACCCCGTATGA | 75.7 a.u. |
| CTTTCCCGATCTTGTCACGGGACTTTAGCACATTTG | 1330 a.u. |
| TGGCGGCCGCCATCTCGCGTGAGATCGCCTTTGGAC | 61.8 a.u. |
| AAAGCGGTAATTTGCATGGTGGGTGCAGATATCTAT | 72.1 a.u. |
| TCAGCCTGCTGGATGCACGTGCGTCTCGGCGCCGCC | 702 a.u. |
| CTAACGAAGGTTTTTCACGTGGTATACAAGCCAAGT | 1160 a.u. |
| GGAGTTCGGGAGTTGCACGTGGCACCTGGTGACAGC | 786 a.u. |
| TTGTTTTATTGCCTTCACGTTTATTAATGCTCAAAC | 125 a.u. |
| TAATAATTCTTGTTCCTCGTGGCCGAATGGTTACGG | 111 a.u. |
| TCTAATGTTATTCGTCACGTCGATCTGACATATATC | 162 a.u. |
| GTAGCTTCGCGGCAATGCCTGATCCGACAGCCGCAA | 44.5 a.u. |
| TTACAATAATAAAAGCACGTGACAAAGTCCCTAGAT | 8690 a.u. |
| TGTCCCTCTATTAACACCGTGATGGTCAAATCAAAC | 126 a.u. |
| CCGGTTTAACCCCCCGGCGTGCTTTGGTAGGTGCCC | 114 a.u. |
| CGCGTTTCTTTGTTCCACGTGCTAAGCGCCTCTCTT | 846 a.u. |

Repeated from above (series 5):
| Strand | fluorescence intensity |
| --- | --- |
| CTTTCCCGATCTTGTCACGGGACTTTAGCACATTTG | 1330 a.u. |
| TGGCGGCCGCCATCTCGCGTGAGATCGCCTTTGGAC | 61.8 a.u. |
| AAAGCGGTAATTTGCATGGTGGGTGCAGATATCTAT | 72.1 a.u. |
| TCAGCCTGCTGGATGCACGTGCGTCTCGGCGCCGCC | 702 a.u. |
| CTAACGAAGGTTTTTCACGTGGTATACAAGCCAAGT | 1160 a.u. |
| GGAGTTCGGGAGTTGCACGTGGCACCTGGTGACAGC | 786 a.u. |
| TTGTTTTATTGCCTTCACGTTTATTAATGCTCAAAC | 125 a.u. |
| TAATAATTCTTGTTCCTCGTGGCCGAATGGTTACGG | 111 a.u. |
| TCTAATGTTATTCGTCACGTCGATCTGACATATATC | 162 a.u. |
| GTAGCTTCGCGGCAATGCCTGATCCGACAGCCGCAA | 44.5 a.u. |
| TTACAATAATAAAAGCACGTGACAAAGTCCCTAGAT | 8690 a.u. |
| TGTCCCTCTATTAACACCGTGATGGTCAAATCAAAC | 126 a.u. |
